Experimental data gathered from unrelated publications.
Numbered parts are unrelated; each lists some results of a single study.

Block 1 — technique: RNA Bind-n-Seq; molecule type: RNA; medium: in vitro; concentration: not given; reference: input RNA pool; reading: higher = stronger binding
Target: RING finger protein unkempt homolog, zinc fingers 1-6, GST-SBP tag (UNK, Homo sapiens, UniProt Q9C0B0, residues 30-357)
Chain of UniProt Q9C0B0 (30-357, looked up): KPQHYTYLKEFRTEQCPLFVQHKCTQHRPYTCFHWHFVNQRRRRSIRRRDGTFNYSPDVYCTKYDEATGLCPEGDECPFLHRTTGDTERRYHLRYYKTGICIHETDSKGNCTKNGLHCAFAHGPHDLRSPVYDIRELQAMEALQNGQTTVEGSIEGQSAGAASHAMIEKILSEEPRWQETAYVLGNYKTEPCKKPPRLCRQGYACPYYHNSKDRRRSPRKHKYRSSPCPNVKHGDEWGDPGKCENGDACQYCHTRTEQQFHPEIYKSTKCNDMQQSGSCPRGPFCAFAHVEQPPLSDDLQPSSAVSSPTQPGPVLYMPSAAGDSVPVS
Setting: RNA with constant flanks, human and mouse sites, ends assumed
Sequence | bound/input enrichment
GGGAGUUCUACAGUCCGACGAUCCAGCGGCAGUUCAUUACAGCAAAUGGCCCUGAGGUGCUGGAGUCUCAAAUUCAAGCAAUCUGAUCACCAGUUCCUUCAUCAGAGCAACGUCUUUCAUCACAUUAACAAUAUUUUGUCAAACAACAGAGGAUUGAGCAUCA | 0.21 ratio
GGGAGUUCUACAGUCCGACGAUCGACGGAAUCAUGUCUCAACUGCUCGUUGUCUGCAGACCUCCAGUAUUUCCUCUGCCUCAUUUUUAAGAAAGAAGCGAUGGGGAGACAUUGCUCUUUGGCCUGGGUAUCUGGGCUCCUGCCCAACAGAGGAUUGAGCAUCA | 0.0893 ratio
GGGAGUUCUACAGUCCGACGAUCUUCAAGCUAGAUCAGCAAGAGUCACGGAUAAUGGAUGAAGAAUGCCUAAGUCAAAACUUUUUAGAGAUCUGGCUAGACAGUUAUUCUGAACUAUGGCUUCAAGAUGAACAAGACAAGCCUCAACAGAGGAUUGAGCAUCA | 0.137 ratio
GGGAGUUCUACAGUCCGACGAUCAAUACAGUUUUUCAUUCUAUUCUUGCUGGAUUAGCGUGUGGUCUUGGAACAUGGUAUCUGCUCCCAAAUAGAAUAACCUUGCUGUAUGGCAGUACAGGAGGCACUGCUCUACUAUUCUUCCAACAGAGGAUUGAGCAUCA | 0.756 ratio
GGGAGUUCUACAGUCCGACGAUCAAAUACUGGAAAAAGGCGAUGAACAUGAGGUACAGUGAUAGGACUAAUAUAAUUAGUAAACCAGUCCCACAGACACUGAUAAUGGCCUAUGACUAUGCCAAGGAGGUAAACAGUGCAGAACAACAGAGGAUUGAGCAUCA | 0.652 ratio
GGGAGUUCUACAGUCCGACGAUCUGUGCAUUUUUUCUGGGGCCAUUGUUUUUGGUUUAUUUUGUUAUUUUGUUUUGUUUUUGUUUUUUUGGUUUCAUUUUGUUUUGGGUUGGUCCAAUUUUAAAAGGAAAUACUACAAUAAAACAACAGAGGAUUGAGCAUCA | 0.999 ratio

Block 2 — technique: protein binding microarray; molecule type: double-stranded DNA, one strand shown; medium: in vitro; concentration: not given; reference: not given; reading: higher = stronger binding
Target: Histone acetyltransferase KAT6A, both winged helices, GST fusion (KAT6A, Homo sapiens, UniProt Q92794, residues 1-181)
Setting: 8-mer, flanks averaged, mean of 2 arrays, mostly near background
Construct (chain): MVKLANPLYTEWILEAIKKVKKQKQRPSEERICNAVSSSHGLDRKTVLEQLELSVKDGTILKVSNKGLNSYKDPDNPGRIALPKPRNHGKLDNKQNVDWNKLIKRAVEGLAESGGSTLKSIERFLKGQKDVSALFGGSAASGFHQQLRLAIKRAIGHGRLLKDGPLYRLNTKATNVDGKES
Sequence | E-score
CAACGCAC | 0.124
AGTAGCTG | -0.268
AAATAGAG | -0.141
GTCGTGGA | -0.00983
CGACTAAC | -0.0605

Block 3 — technique: protein-binding microarray; molecule type: double-stranded DNA, one strand shown; medium: in vitro; concentration: 2200 nM top; setting: 60-bp whole probe; with: salmon DNA 0.4 mg/ml; reference: random background probes; reading: higher = stronger binding; shared flanks, not repeated: GCCTAGCACT … GTCTTGATTCGCTTGACGCTGCTG
Target: Interferon regulatory factor 7, full length, phosphomimetic (IRF7, Homo sapiens, UniProt Q92985, residues 1-503, S471D/S472D/S475D/S476D/S477D/S483D/S484D/S487D)
Chain of UniProt Q92985 (whole entry, unmodified, looked up): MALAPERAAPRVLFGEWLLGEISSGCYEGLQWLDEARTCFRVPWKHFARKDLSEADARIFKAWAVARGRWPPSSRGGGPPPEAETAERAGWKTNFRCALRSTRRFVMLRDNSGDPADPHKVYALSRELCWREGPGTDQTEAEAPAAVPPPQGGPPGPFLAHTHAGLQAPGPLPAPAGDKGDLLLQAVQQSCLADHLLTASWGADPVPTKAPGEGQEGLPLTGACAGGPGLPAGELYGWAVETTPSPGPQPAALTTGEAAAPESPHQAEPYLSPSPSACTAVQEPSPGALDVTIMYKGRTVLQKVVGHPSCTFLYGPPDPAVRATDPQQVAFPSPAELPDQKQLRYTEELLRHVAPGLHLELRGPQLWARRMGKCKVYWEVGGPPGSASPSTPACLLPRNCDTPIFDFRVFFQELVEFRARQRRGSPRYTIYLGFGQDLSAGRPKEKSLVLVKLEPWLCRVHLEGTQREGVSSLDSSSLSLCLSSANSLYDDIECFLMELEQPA
Sequence | fitted relative affinity
CATGCATGTTTTTGACACTGTGCTAG | 1.14 z-score
ACTAGAGTAAAACCCTGGCGTGCTAG | -0.436 z-score
TAGGTTTTCTTTCCCTTTAGTGCTAG | 3.73 z-score
TAGATATCGGGTTTCCATTAGTGCTA | 1.17 z-score
AGCATGTAATTTGTTTGCAGTGCTAG | 0.216 z-score

Mixed results
Molecule | target | assay | system | conditions | scale | quantity | result
PhoQ, residues 284 288 289 292 302 303 NLMGRA | PhoP, residues 12 14 15 18 19 IQSYL (Escherichia coli, UniProt P23836) | Sort-seq, measured: YFP reporter | E. coli | PhoQ-PhoP variant library, with: 10 µM Mg2+ | reference: high Mg2+ state, higher = stronger signaling | fold induction | 15.8

Some of these lines once more (block 3):
Sequence | fitted relative affinity
ACTAGAGTAAAACCCTGGCGTGCTAG | -0.436 z-score
AGCATGTAATTTGTTTGCAGTGCTAG | 0.216 z-score
